Measurements collected from several papers.
Lines come from different studies, so protocols differ. Values joined by “and” are separate records of one study, mostly repeats; a detail may differ. ± gives the spread as reported. Values after ≈ are worked out from the molar mass of the structure shown.
CDK2 with cyclin A: Cyclin-dependent kinase 2, with cyclin A (CDK2, Homo sapiens, UniProt P24941)
Sequence of UniProt P35462 (whole entry, looked up): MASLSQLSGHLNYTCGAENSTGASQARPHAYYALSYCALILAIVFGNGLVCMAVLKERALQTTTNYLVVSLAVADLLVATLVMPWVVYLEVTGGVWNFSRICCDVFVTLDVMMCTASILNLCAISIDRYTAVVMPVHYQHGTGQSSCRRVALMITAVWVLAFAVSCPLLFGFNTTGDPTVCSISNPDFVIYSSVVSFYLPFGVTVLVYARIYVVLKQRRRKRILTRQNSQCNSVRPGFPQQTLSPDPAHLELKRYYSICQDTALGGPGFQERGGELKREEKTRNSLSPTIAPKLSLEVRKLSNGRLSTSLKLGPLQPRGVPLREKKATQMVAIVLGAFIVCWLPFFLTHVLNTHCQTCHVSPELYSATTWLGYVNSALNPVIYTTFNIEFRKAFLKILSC

O=C(Nc1cnccc1Cl)N1CCN(Cc2ccc3c(c2)OC(F)(F)O3)CC1  dose-normalized Cmax (young men, plasma; oral, 10 mg once daily, day 10, normalized to 10 mg): 78.9 ng/mL
C[C@@H](N)C1CCN(S(=O)(=O)c2cccc3cnccc23)CC1  pulse rate increase (healthy volunteers; 250 mg, 2 h, standing): 21.6 beats/min
CC(C)C[C@H](NC(=O)C[C@H](O)[C@H](CC(C)C)NC(=O)[C@H](Cc1c[nH]cn1)NC(=O)CNC(=O)[C@@H](NC(=O)[C@H](C)NC(=O)[C@H](Cc1c[nH]c2ccccc12)NC(=O)[C@H](CCC(N)=O)NC(=O)[C@@H](Cc1ccccc1)NC(=O)COCCOCCNC(=O)CCC(C(=O)O)N1CCN(CC(=O)O)CCN(CC(=O)O)CCN(CC(=O)O)CC1)C(C)C)C(N)=O (stereo partly drawn) [lutetium-177 labelled]  tissue uptake (female BALB/c nu/nu mice, stomach; intravenous, 50 pmol, 24 h): 0.03 ± 0.02 %ID/g
CCn1c(SCC(=O)Nc2cccc(C(C)=O)c2)nnc1-c1ccncc1  Kd (CDK2 with cyclin A): > 100 µM
COc1ccc2c(c1)CN(C(=O)CCN1CCC(Cc3ccccc3)CC1)CC[S@@+]2[O-]  systolic blood pressure (telemetry; conscious male beagle dogs; intravenous, NG, 1 h): 140 ± 28 mmHg
COc1nnc2ccc(N3CCC(c4ccc(OCCN5CCN(C)C(=O)[C@H]5C)cc4)CC3)nn12  terminal half-life (patients, plasma; oral, 20 mg twice daily, multiple dose, monotherapy): 2.33 h
C[C@H](CCC(=O)NCC(=O)O)[C@H]1CC[C@H]2[C@@H]3[C@H](O)C[C@@H]4C[C@H](O)CC[C@]4(C)[C@H]3C[C@H](O)[C@]12C  relative peak deviation (human, plasma; endogenous baseline diurnal; relative to: daily mean concentration): 190 ± 18%
CC(C)(C(=O)N1CCOc2c(C#N)cncc2C1)C(F)F  subjects with adverse event (item: contact dermatitis; human; oral, 10 mg once daily, 14 days, multiple ascending dose): 0%
Cc1ccc(C)c(OCCCC(C)(C)C(=O)O)c1  geometric mean ratio (item: V/F; human subjects, plasma; oral, dose not given, together with: lopinavir-ritonavir; relative to: with over without lopinavir-ritonavir): 1.69
CN(C(=O)n1cnc(-c2ccc[n+]([O-])c2)c1)[C@H]1CC[C@H](O)CC1  tissue concentration (rat, cortex; oral, 10 mg/kg single dose, 1 h): 9.1 ± 0.5 ng/g
Cc1ccc([C@@H]2O[C@H](CO)[C@@H](O)[C@H](O)[C@H]2O)cc1Cc1ccc(-c2ccc(F)cc2)s1  urinary chloride excretion change (Japanese type 2 diabetes patients; 400 mg, day 15, 24 h urine collection; relative to: baseline): 9.08 mEq
Cc1nn(C)cc1S(=O)(=O)NC(=O)c1ccc(-n2ccc(OCC(C)(C)C(F)(F)F)n2)nc1N1C[C@@H](C)CC1(C)C  elimination half-life (human, plasma; standard ETI dose): 27.7 h
C=CCN1CC(=O)N2[C@@H](Cc3ccc(O)cc3F)C(=O)N(Cc3cccc(N4CC(N5CCN(CC)CC5)C4)n3)C[C@@H]2N1C(=O)NCc1ccccc1  treatment-related decreased appetite (advanced solid tumour patients; oral, 100 mg twice daily, any grade, dose-escalation): 16.7%
NC[C@@H]1O[C@H](O[C@H]2[C@@H](O)[C@H](O[C@@H]3[C@@H](O)[C@H](N)C[C@H](N)[C@H]3O[C@H]3O[C@H](CO)[C@@H](O)[C@H](O)[C@H]3N)O[C@@H]2CO)[C@H](N)[C@@H](O)[C@@H]1O  body weight (NSG mice; dose not given, day 15 of treatment): 23.3 g and 23.9 g and 25.9 g and 23.6 g and 23.8 g and 24.1 g and 21.4 g and 24.2 g
Cc1cc(-c2nnc(N)nc2-c2ccc(F)cc2)cc(Cl)n1  patients with treatment-related adverse events (item: Nausea; human phase Ia/Ib mCRPC, immunotherapy-naive; oral, dose not given): 69.2%
Cc1[nH]c(C)c(S(=O)(=O)Nc2c(Cl)cc(C(F)(F)F)cc2Cl)c1C(=O)N1CCC(F)(F)C1  IC50 (DRD3 (Homo sapiens, UniProt P35462); Go activation, antagonist, BRET; together with: dopamine): > 100 µM
C[C@H]1[C@H]2N(C(=O)CN(C)N2C(=O)NCc2ccccc2)[C@@H](Cc2ccc(OP(=O)(O)O)cc2)C(=O)N1Cc1cccc2cccnc12  plasma concentration (human, plasma; intravenous infusion over 4 h, 280 mg/m2, 24 h after dosing): 0 ng/mL
CNCc1ccc(-c2[nH]c3cc(F)cc4c3c2CCNC4=O)cc1  dizziness incidence (human patients; oral, 480 mg twice daily, all grades): 22.2%
NC(CO)(CO)CCc1ccc(Sc2cccc(OCc3ccccc3)c2)cc1Cl  pulse rate AUEC, mean (human, supine; oral, 3 mg, 0 to 24 h, alone): 1280 h×bpm
CC(C)[C@H](C(=O)Nc1ccc(C(=O)NO)cc1)c1ccccc1  measured concentration (whole blood; 100 ng/mL, 0 h, 4 °C, stability on ice): 107 ng/mL
O=C(O)CCC(=O)O.[2H]C([2H])([2H])Oc1cc(C)c2[nH]ccc2c1CN1CC[C@@H](C2CC2)C[C@H]1c1ccc(C(=O)O)cc1  subjects with increased creatinine TEAE (multiple ascending dose; healthy Chinese subjects; 50 mg twice daily): 0%
CCO  feeling hot (human; concentration not given, treatment-emergent adverse event): 11.1%
CC(C)=CCC/C(C)=C/CC/C(C)=C/COP(=O)(O)OP(=O)(O)O  Km (Sphagneticola trilobata; β-caryophyllene formation, substrate; 10 min, 35 °C): 5.01 µM
Oc1ccc(/C=C/c2cc(O)cc(O)c2)cc1  glucose (rat, azoxymethane-injected, blood at sacrifice; 100 mg/kg): 180 mg/dL and 262 mg/dL and 212 mg/dL
Cn1cc(-c2ccc(-c3cncc(Cl)c3N3CCC4(CCNC4=O)CC3)cc2)cn1  log2 fold change (COLO 205; gene expression, microarray, item: ASS1 mRNA; concentration not given, 2 h; relative to: untreated cells): 3.47
CCn1ncc2c1-c1cnc(N)c(c1)O[C@H](C)c1cc(F)ccc1-c1nn(C)nc1C2  unbound plasma concentration (female athymic nude mice, sample A PDX; oral, 0.04 mg/kg once daily for 1 days, 1 h): 4.3 ± 0.3 nM
Cc1nc(-c2cnc(NC(C)C)n(C)c2=O)ccc1Oc1ccnc(-c2cnn(C)c2)c1  AUC(0-inf) (Beagle dog, male, plasma; intravenous, 1 mg/kg): 7520 ng·h/mL
C[C@@]1(c2cc(NC(=O)c3ccc(C#N)cn3)ccc2F)C=CSC(N)=N1  dose-normalised AUC(0-inf) (elderly humans, both sexes, plasma; oral, 90 mg single dose): 99.4 ng·h/mL
CC(C)(N)COCC(=O)N1CCC[C@H](C(=O)NCc2nc(-c3ccc(C(F)(F)F)cc3)cs2)C1  urinary excretion (Sprague-Dawley rat, male, urine; intravenous, 1 mg/kg, 24 h; relative to: dose): 4.7%
O=C(O)CSc1nnc(Br)n1-c1ccc(C2CC2)c2ccccc12  body weight (KM mouse, chronic hyperuricaemia model; dose not given, day 29): 39 g and 38 g and 35.4 g and 33.8 g and 42.2 g
COc1ccc2c(=O)n(C)c(-c3ccccc3)nc2c1  tissue concentration (Sprague-Dawley rat, male, bladder; oral, 30 mg/kg, 2 h): 14 ng/mL
[18F]c1ccc(-c2ccc3c(c2)[nH]c2ccncc23)cn1  SUV (ex vivo biodistribution; B6SJL mouse, normal, kidneys; intravenous, 30 min): 4.75 ± 1.43
N#Cc1ccc(C(c2ccc(C#N)cc2)n2cncn2)cc1  tumour concentration (human patients, tumour tissue at surgery; 5 mg daily): 77 ± 15.7 ng/g
CC(C)=CC[C@@H](O)C1=CC(=O)c2c(O)ccc(O)c2C1=O  measured concentration (plasma; 25 ng/mL, 3 d, -80 °C, storage stability): 22.3 ± 1.94 ng/mL
O=C(c1cccnc1-c1ccncc1)N1CCC(O)(Cc2ccccc2)CC1  elimination rate constant (healthy Japanese adults, plasma; oral, 1200 mg single dose): 5.28e-05 s⁻¹
C=CC(=O)NC1CCN(c2ncc3ncnc(Nc4ccc(Oc5ccc6c(c5)ncn6C)c(C)c4)c3n2)CC1  blood-to-plasma ratio (item: total radioactivity; healthy male human, whole blood and plasma; oral, 60 mg, 168 h, geometric mean): 3.31
O=C(Nc1ccc(S(=O)(=O)Nc2ncccn2)cc1)c1c(Cl)cccc1Cl  Kd (CDK2 with cyclin A): > 100 µM
N#Cc1ccc2c(c1)[C@H]1CCCN(C(=O)c3ccc4[nH]cnc4c3)[C@H]1C2  androstenedione level (human, male; 360 mg, end of trial): 4.7 nmol/L
C[C@@H]1CCO[C@H]2Cn3cc(C(=O)NCc4ccc(F)cc4F)c(=O)c(O)c3C(=O)N12  AUC(0-24) (population PK, post-hoc; children, 25 to <30 kg, plasma; oral, 50 mg film-coated tablet, steady state, geometric mean): 65000 ng·h/mL
CCc1cc(C(=O)NC)c2nccc(N3CCc4c(cc(Cn5ccnc5)cc4-c4cn(C)nc4C(F)(F)F)C3=O)c2c1  body weight (Sprague Dawley rat; oral, 100 mg/kg once daily, day 2, 7-day toxicology study): 227 ± 2.6 g
COc1cccc(-c2n[nH]c(SCc3ccccn3)n2)c1OC  liver weight (Sprague-Dawley rats, male; diet, 100 mg/kg/day, 90-day subchronic study): 16.6 g
O=[N+]([O-])c1cn2c(n1)OC[C@@H](OCc1ccc(N3CCOCC3)c(F)c1)C2  aqueous solubility (aqueous buffer; pH 7.4): 10.1 µg/mL (≈ 26.7 µM)
COc1ncc(-c2nc3c(n2C(C)C)[C@H](c2ccc(Cl)cc2)N(c2cc(Cl)cn(C)c2=O)C3=O)c(OC)n1  AUC(0-t) geometric mean (human patients, plasma; oral, 350 mg, high-dose arm, cycle 1 day 1): 55100 ng·h/mL
CCN(CCO)CCCC(C)Nc1ccnc2cc(Cl)ccc12 (stereo not drawn)  average concentration (human, whole blood; oral, 800 mg): 2070 ng/mL and 1730 ng/mL
Cc1cccc(CNC(=O)c2cn(CCNC(=O)c3ccccc3Sc3c([N+](=O)[O-])ncn3C)c3cc4c(cc3c2=O)OC(F)(F)O4)n1  half-life (Sprague-Dawley rat, male, whole blood; intramuscular, 10 mg/kg): 10.4 h
